Measurements of several laboratories.
Numbered parts are unrelated; each lists some results of a single study.

Sample 1 — method: aptamer microarray, sandwich; form: DNA with 2'F-ANA; medium: in vitro; concentration: 200 nM; together with: Cy3 exosite-II aptamer, 400 nM; direction: higher = stronger binding; strand: GGTTGGTGTGGTTGG
Target: Prothrombin, mature alpha-thrombin (F2, Homo sapiens, UniProt P00734)
Notes: whole 15-mer aptamer, many near background
`2'F-ANA at 2 3 4 5 6 7 9 11 12 15`: “mean fluorescence intensity” 118 a.u.
For `2'F-ANA at 1 2 9 10 13 15`, “mean fluorescence intensity” read 52.1 a.u.
`2'F-ANA at 3 4 6 9 10 15` — result for “mean fluorescence intensity”: 253 a.u.
Under “mean fluorescence intensity”, `2'F-ANA at 1 4 5 6 8 10 11 12 13` is recorded as 48.4 a.u.
`2'F-ANA at 1 4 5 8 9 14`: “mean fluorescence intensity” 142 a.u.
`2'F-ANA at 8 10 11 14 15`: “mean fluorescence intensity” 94.2 a.u.
`2'F-ANA at 1 2 3 4 5 9 11 12 14 15`: “mean fluorescence intensity” 45.9 a.u.
Under “mean fluorescence intensity”, `2'F-ANA at 2 3 4 5 7 9 12` is recorded as 196 a.u.
`2'F-ANA at 1 2 4 5 6 9 10 11 13 15`: “mean fluorescence intensity” 78.3 a.u.
`2'F-ANA at 1 2 4 5 8 9 10 11 12` — result for “mean fluorescence intensity”: 53.6 a.u.
Under “mean fluorescence intensity”, `2'F-ANA at 1 4 6 11 14` is recorded as 49.4 a.u.
Under “mean fluorescence intensity”, `2'F-ANA at 1 4 6 7 8 10 11 12` is recorded as 56 a.u.
For `2'F-ANA at 1 2 5 6 8 14 15`, “mean fluorescence intensity” read 46.1 a.u.
`2'F-ANA at 1 6 7 8 10 13` — result for “mean fluorescence intensity”: 57.7 a.u.
`2'F-ANA at 4 5 6 9 10 11 12 13 14`: “mean fluorescence intensity” 79.4 a.u.
`2'F-ANA at 1 2 9 12 13 14`: “mean fluorescence intensity” 65.7 a.u.

Sample 2 — method: RNA Bind-n-Seq; form: RNA; medium: in vitro; concentration: 365 nM; baseline: no-protein control; direction: higher = stronger binding
Target: RNA binding protein fox-1 homolog 2, RRM domain, GST-SBP tag (RBFOX2, Homo sapiens, UniProt O43251-10, residues 100-194)
Notes: natural RNA segment, single round, ends assumed
Target sequence (chain): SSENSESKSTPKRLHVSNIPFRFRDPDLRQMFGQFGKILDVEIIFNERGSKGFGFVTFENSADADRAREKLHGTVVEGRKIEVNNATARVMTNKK
`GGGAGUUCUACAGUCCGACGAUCAUUCUGGCCUUGGAAUACUUUAAUUCCGGACCAAAAGAGGUCAAUUUUGUGAGUAUUGCCUAUUAAGUAAACAACAUCCCUCAUUUUUAAUCCAAAUAUCAAUUUGACAGUGGAAUUCUCGGGUGCCAA` — result for “RBNS enrichment (R)”: 0.329.
Under “RBNS enrichment (R)”, `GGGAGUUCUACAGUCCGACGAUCCUAACCCUGUGGAAGCAUGGCUGUCUGCACAGAGGGUCCCAUUGUGCAGAAAAGCUCAGAGUAGGUGGGUAGGAGCCCUUCUCUUUGACUUAGGUUUUUAGGAGUCUGAGUGGAAUUCUCGGGUGCCAA` is recorded as 1.12.
`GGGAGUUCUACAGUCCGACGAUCUUUUUGUAAUUUAUUUUUUAAGUGGGCUCCUGACAAUACUGUAUCAGAUGUGAAGCCUGGAGCUUUCCUGAUGAUGCUGGCCCUACAGUACCCCCAUGAGGGGAUUCCCUUGGAAUUCUCGGGUGCCAA`: “RBNS enrichment (R)” 0.626.
For `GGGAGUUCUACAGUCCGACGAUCAUAAAACAUUCUGUUUAAGUGUUUUUCUUACGUUUUUCUCAAUGAGUUAAUCAACAAGUAUUUAUUAUGUGCUGAUAUCUUUGUUUUAGAUGCUUUAAAGGAGACAGGAAUGGAAUUCUCGGGUGCCAA`, “RBNS enrichment (R)” read 0.338.
`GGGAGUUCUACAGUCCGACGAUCAACCCCCUAAGCCAGCAGGAGCAGGGUAUGCAGAGGCUUUGCCUCUGCUGGCUUAGGGUGAGAAGUACCUCACAAUGGAUGUGAACAUUGGACAGAUUUUAGGAGCAUGAUGGAAUUCUCGGGUGCCAA`: “RBNS enrichment (R)” 2.3.
`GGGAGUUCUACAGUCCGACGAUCCACAGCCAGCCUAGGGUCUUCGGCACCUCCAAGAGCUGAAUCUCCCUCCAACCCUUCUUGCCUACUCCUCACUGCCAGCUGGGACCUAGGCUCAGUCCUGUGUGGUGCCCUGGAAUUCUCGGGUGCCAA`: “RBNS enrichment (R)” 0.526.

Sample 3 — method: RNA Bind-n-Seq; form: RNA; medium: in vitro; concentration: not given; baseline: input RNA pool; direction: higher = stronger binding
Target: RING finger protein unkempt homolog, zinc fingers 1-6, GST-SBP tag (UNK, Homo sapiens, UniProt Q9C0B0, residues 30-357)
Notes: RNA with constant flanks, human and mouse sites, ends assumed
Target sequence (chain): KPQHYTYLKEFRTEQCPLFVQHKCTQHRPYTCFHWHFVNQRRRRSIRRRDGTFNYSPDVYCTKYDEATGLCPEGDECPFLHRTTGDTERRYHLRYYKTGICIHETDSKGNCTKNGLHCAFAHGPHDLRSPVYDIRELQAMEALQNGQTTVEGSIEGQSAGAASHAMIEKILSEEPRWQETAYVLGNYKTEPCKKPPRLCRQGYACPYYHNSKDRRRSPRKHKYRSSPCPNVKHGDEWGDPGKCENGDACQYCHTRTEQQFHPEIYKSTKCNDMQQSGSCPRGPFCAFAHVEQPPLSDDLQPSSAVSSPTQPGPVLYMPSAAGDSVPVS
`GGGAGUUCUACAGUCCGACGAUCGACAUUUGGACCUUGUUGGGAACAGUGCUUUAUCCAUUCCUUGCCAUCUGGAGAUUAAUUAGCAAUUUCUUGUUUAGUAAUCCGCCUCCCACACAGACUUCAGUGAGAGUAACAUCGUCACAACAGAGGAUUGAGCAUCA` gave a bound/input enrichment of 3.57 ratio.
`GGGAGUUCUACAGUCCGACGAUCAGCAUUUUUUCCUGUUAACUUUAUAUUACAAAAUCCGUUCUACCAUAACAAUACAGAGGAACUAGCUGUGUUACUGCACCAGUGUUAUAGGUAACUUCAGUAUAUUAUGAACAAAUCAAACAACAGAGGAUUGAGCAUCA` gave a bound/input enrichment of 0.687 ratio.
`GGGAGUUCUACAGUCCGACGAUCGCUCUGCCCAGUAUCCCUCACUUACCAAGAGGAGAAUGGAGGGAUAAUGGACUCACCCUAGCCUAGGGCUUCGACAUUGCAUGCUGGGAUCCAGCUCCUACCCUUCCUGCACUCCCUUCCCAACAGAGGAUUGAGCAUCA` gave a bound/input enrichment of 0.215 ratio.
The bound/input enrichment of `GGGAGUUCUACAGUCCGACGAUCGUCACAGAAAUUCCUAAAGAAGAGAAGGACCCUGGAAUGGGUGCAAUGGGUGGAAUGGGAGGUGGUAUGGGAGGUGGCAUGUUCUAACUCCUAGACUAGUGCUUUACCUUUAUUAAUGAACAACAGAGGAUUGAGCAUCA` is reported as 5.7 ratio.
The bound/input enrichment of `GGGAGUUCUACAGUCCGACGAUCGAGCAGUCCUUGGAAACUGCGAAAGCAGUGAAGGAACGCUACAGUUAUGUCUGCCCAGAUUUAGUAAAAGAGUUUAACAAGUAUGACACCGAUGGGUCAAAGUGGAUCAAACAGUACACCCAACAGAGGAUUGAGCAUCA` is reported as 1.32 ratio.
`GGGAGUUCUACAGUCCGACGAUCCGUGGAGAUGCAGACCAGGCCAGUAACAUUUUGGCCAGCUUUGGUCUGUCUGCUAGAGACUUAGAUGAACUGAGUCGUUAUCCAGAGGACAAGAUUACUCCUGAGAAUUUGCCCCAAAUCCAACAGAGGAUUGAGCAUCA` has a bound/input enrichment of 0.056 ratio.
The bound/input enrichment of `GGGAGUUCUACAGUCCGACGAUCCAGUGUGCAAUACUUUCCCCGGCAUUUAAAGUUAGAGAAUUUUCCGUCACAGAUGCAGUUCCUUUUCCAAUAUCUCUGAUCUGGAACCAUGAUUCAGAAGAUACUGAAGGUGUUCAUGAACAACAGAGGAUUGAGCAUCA` is reported as 0.195 ratio.
`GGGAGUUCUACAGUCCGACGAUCAAGGGAGGAAUCCUACGUUUUAUAUGUUUUUUUUUUCUUUGUUAAUUCUACACUUUGAAAGUGUUGGCUAAAUAAACUAAUCCAAAAGUUAUUUUUUCCUAUCGAGAAGACAGAAAAAGGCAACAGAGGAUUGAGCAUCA` has a bound/input enrichment of 0.561 ratio.

Sample 4 — method: protein-binding microarray; form: double-stranded DNA, one strand shown; medium: in vitro; concentration: 0.8 µM; notes: whole 60-bp probe, no competitor; direction: higher = stronger binding
Target: Centromere-binding protein 1, full length, N-terminal tag (CBF1, Saccharomyces cerevisiae, UniProt P17106, residues 1-351)
Sequence of UniProt P17106 (whole entry, looked up): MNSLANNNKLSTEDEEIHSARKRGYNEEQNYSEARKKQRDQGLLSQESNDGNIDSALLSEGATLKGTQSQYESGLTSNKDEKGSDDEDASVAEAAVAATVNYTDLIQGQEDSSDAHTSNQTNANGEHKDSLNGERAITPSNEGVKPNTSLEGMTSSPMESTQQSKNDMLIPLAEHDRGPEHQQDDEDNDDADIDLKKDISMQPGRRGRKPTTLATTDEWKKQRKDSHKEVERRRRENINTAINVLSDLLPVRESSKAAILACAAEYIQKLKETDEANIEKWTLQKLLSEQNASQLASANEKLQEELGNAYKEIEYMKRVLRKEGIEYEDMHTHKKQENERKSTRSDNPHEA
`CTAAAACAATGGAAACATCAGAAAGATATTTATTTCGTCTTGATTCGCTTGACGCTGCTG` has a fluorescence intensity of 617 a.u.
`CTATGGATAGTGCACCACGAGACTTGGCATGATTTCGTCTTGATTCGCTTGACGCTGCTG` gave a fluorescence intensity of 822 a.u.
For `GAAACATAAGCAAAGCACATGGGAATAGACAATTAGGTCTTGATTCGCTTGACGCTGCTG`, the fluorescence intensity was 577 a.u.
`CTAATTCGTGGTAGTCACGCATACGTTTGTCAGTTCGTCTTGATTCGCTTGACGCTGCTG` gave a fluorescence intensity of 930 a.u.
The fluorescence intensity of `GAATCTCAGACCCTGAACGTGACCGTCCATCATTAGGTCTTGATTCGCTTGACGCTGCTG` is reported as 1900 a.u.
`CCTAACTACTATAGGAACGTGCCATAGCTTCGTACAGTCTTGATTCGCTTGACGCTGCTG` has a fluorescence intensity of 741 a.u.
`CTAATAATGGTAGTAATGGTGATGAAATGTTGTTTCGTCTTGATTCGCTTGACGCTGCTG` gave a fluorescence intensity of 503 a.u.
The fluorescence intensity of `CTAGTGATACCGCGTCACATGACCATTTAAAAGTTCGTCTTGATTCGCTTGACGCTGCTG` is reported as 13700 a.u.
`TGTACGAAGCTATTCCGTGCACATATAGTAGTTAGGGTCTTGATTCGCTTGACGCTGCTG` gave a fluorescence intensity of 513 a.u.
With `GAAACCTATTAATTGCACCTGACTGACGCCTTTTAGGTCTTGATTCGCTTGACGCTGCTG` the fluorescence intensity was 1370 a.u.
The fluorescence intensity of `CTAACTTACTTATGTCACATGCAAGACGTAGACTTCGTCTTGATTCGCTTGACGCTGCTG` is reported as 3030 a.u.
With `GAAGTATTGATCAATTACGTGAGTCAGCTTTTTTAGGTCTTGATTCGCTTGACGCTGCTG` the fluorescence intensity was 522 a.u.
The fluorescence intensity of `CTATCTCCTTGTCGTCATGTGAAAGTCAAACAGTTCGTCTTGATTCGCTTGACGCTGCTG` is reported as 1160 a.u.
The fluorescence intensity of `TGTACGAAGCTATCGCTCGTGTATATAGTAGTTAGGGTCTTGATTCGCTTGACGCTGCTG` is reported as 536 a.u.
With `GAATTTTTGCATCATCATGATCATACATGCTTTTAGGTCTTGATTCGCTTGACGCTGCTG` the fluorescence intensity was 594 a.u.
For `CTATAAATACTAGGTCAGATGAATAAAGAGCAGTTCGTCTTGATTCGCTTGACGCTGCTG`, the fluorescence intensity was 648 a.u.
With `CCTAACTACTATAGTGATGTTGGATAGCTTCGTACAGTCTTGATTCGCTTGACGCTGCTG` the fluorescence intensity was 533 a.u.
`CTACGCGCCTAACATATCATGATGATTGGGTGTTTCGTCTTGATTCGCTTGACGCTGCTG` gave a fluorescence intensity of 536 a.u.
`CTAGAGCGATGCCATCATCACATGCACGTTTTCTTCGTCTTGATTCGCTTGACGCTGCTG` has a fluorescence intensity of 2200 a.u.
`GAATCTTGAAGGCAACATGTGAGATCGGGAAGTTAGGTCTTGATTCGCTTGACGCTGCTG` gave a fluorescence intensity of 624 a.u.

Repeated from above (sample 1):
`2'F-ANA at 2 3 4 5 6 7 9 11 12 15`: “mean fluorescence intensity” 118 a.u.
`2'F-ANA at 8 10 11 14 15`: “mean fluorescence intensity” 94.2 a.u.
For `2'F-ANA at 1 2 9 10 13 15`, “mean fluorescence intensity” read 52.1 a.u.
`2'F-ANA at 1 2 9 12 13 14`: “mean fluorescence intensity” 65.7 a.u.
`2'F-ANA at 3 4 6 9 10 15` — result for “mean fluorescence intensity”: 253 a.u.
`2'F-ANA at 1 6 7 8 10 13` — result for “mean fluorescence intensity”: 57.7 a.u.
`2'F-ANA at 1 4 5 8 9 14`: “mean fluorescence intensity” 142 a.u.
`2'F-ANA at 4 5 6 9 10 11 12 13 14`: “mean fluorescence intensity” 79.4 a.u.
